# Results collected from several papers.
# Protocols differ between the studies behind these lines. Values joined by “and” are separate records of one study, mostly repeats; a detail may differ. ± marks the error that the study gave.
Structure (SMILES),test,test system,setting,how to read,endpoint,value
C[C@@H](NC(=O)N1C(=O)[C@H](Cc2ccnc(N)c2)[C@H]1C(=O)O)C1CCCCC1,,healthy adult Chinese volunteers,"continuous intravenous infusion, 0.3 mg/kg/h, 5-day infusion, CTCAE 5.0 grading",,incidence of urine occult blood positive,12.5%
CCCCCCCCCCCCCCCC(=O)N[C@@H](CCC(=O)NCCCC[C@H](NC(=O)[C@H](CC(=O)O)NC(=O)[C@H](CO)NC(=O)[C@@H](NC(=O)[C@H](Cc1ccccc1)NC(=O)[C@@H](NC(=O)CNC(=O)[C@H](CCC(N)=O)NC(=O)[C@H](CO)NC(=O)[C@@H](N)Cc1c[nH]cn1)[C@@H](C)O)[C@@H](C)O)C(=O)N[C@@H](CO)C(=O)N[C@@H](CCC(=O)O)C(=O)N[C@@H](Cc1ccc(O)cc1)C(=O)N[C@@H](CC(C)C)C(=O)N[C@@H](CC(=O)O)C(=O)N[C@@H](CO)C(=O)N[C@@H](CCC(=O)O)C(=O)N[C@@H](CCCNC(=N)N)C(=O)N[C@@H](C)C(=O)N[C@@H](CCCNC(=N)N)C(=O)N[C@@H](CC(=O)O)C(=O)N[C@@H](Cc1ccccc1)C(=O)N[C@H](C(=O)N[C@@H](C)C(=O)N[C@@H](Cc1c[nH]c2ccccc12)C(=O)N[C@@H](CC(C)C)C(=O)N[C@@H](CCC(=O)O)C(=O)N[C@@H](C)C(=O)NCC(=O)NCC(=O)O)C(C)C)C(=O)O,item: Dizziness,humans CrCl 30 to 45 mL/min,"subcutaneous, 100 µg single dose",,treatment-related adverse events,0%
CCCC(CCC)NC(=O)c1ccc2c(c1)OCO2,,"Swiss albino CD-1 mice, male, bone marrow","intraperitoneal, 700 mg/kg, 24 h",,PCE/NCE ratio,0.8
C=CCNc1c(O)cc2c(O)c1C[C@@H](C)C[C@H](OC)[C@H](O)[C@@H](C)/C=C(\C)[C@H](OC(N)=O)[C@@H](OC)/C=C\C=C(/C)C(=O)N2,item: Headache,unresectable or metastatic GIST/STS,"intravenous, dose not given, all doses",,patients with TEAE,50%
C[C@H]1COCCN1c1nc(NCc2cccnc2C(F)(F)F)c2cccnc2n1,,conscious rat,"intravenous, 30 mg/kg",relative to: control,heart rate change,9.3%
CCCCCCCCCCCCOS(=O)(=O)O.O=C(NCCCNc1nc(Nc2cccc(NC(=O)N3CCCC3)c2)ncc1I)c1cccs1,shake flask,octanol/water,,,logP,2.93 ± 1.16
CO[C@H]1C[C@@H]2CC[C@@H](C)[C@@](O)(O2)C(=O)C(=O)N2CCCC[C@H]2C(=O)O[C@H]([C@H](C)C[C@@H]2CC[C@@H](OC(=O)NCCOCCOCCOCCOCCOCCOCCOCCOCCC(=O)N3CCc4cc(Cn5nc(-c6ccc7oc(N)nc7c6)c6c(N)ncnc65)ccc4C3)[C@H](OC)C2)C[C@@H](O)[C@H](C)/C=C(\C)[C@@H](O)[C@@H](OC)C(=O)[C@H](C)C[C@H](C)/C=C/C=C/C=C/1C,"phase 1 dose escalation, item: mucositis",advanced solid tumour patients,"intravenous, 10 mg weekly, any grade",,dose-reducing adverse events,25%
CC1(C)[C@H](C=C(Cl)Cl)[C@H]1C(=O)OCc1cccc(Oc2ccccc2)c1,item: CYP2C8,"human, age 5 years, recombinant human CYP2C8",0.1 µM,,enzyme contribution to clearance,0.04%
Cn1ncc(-c2nc(N[C@H]3CC[C@H](N)CC3)ncc2Cl)c1CC1CC1,phase I dose escalation,human patients,"oral, dose not given, treatment-related adverse events",,oral pain incidence,12.9%
O=C(O)CCCOc1ccc(F)cc1-c1cc(-c2ccccc2C(F)(F)F)n(-c2ccccc2)n1,,"female Crl:CD(SD) rats, brain","intravenous, 25 µg/kg, 1 d",,relative organ weight,0.89 ± 0.05 g%
CC(=O)N(C)[C@H]1CCN(C(=O)c2cnc3c(c2)C[C@](C)(c2ccc(F)cc2)N3)C1,item: eye irritation,human,"oral, dose not given, with: midazolam",,adverse event duration,15 days
O=S(=O)(Nc1ccccc1)c1ccc(NC(=S)Nc2ccccc2)cc1,item: Ca,"male mouse, blood","oral, 80 mg/kg daily, 14 days",,blood chemistry level,10 mg/dL
CCc1ccc(CC/C=C/c2ccc3c(c2)C(=O)CC3)cc1,,"Sprague-Dawley rat, female","oral, 120 mg/kg/day, 14 days",,Eosinophil percentage,0.97%
O=C(O)CCC(CP(=O)(O)O)C(=O)O (stereo not drawn),,"NSG mice, C4-2 xenograft, salivary glands","intravenous, 3 mg/kg, 0.25 to 6 h",,AUC(0-t),2.7 ± 0.4 nmol·h/g
NC(=O)N1c2ccccc2C=Cc2ccccc21,PAMPA,pre-coated trilayer membrane,"200 µM, 5 h, pH 7.4, donor plate, PBS",,donor concentration,150 ± 6 µM
COc1ccc2nc3cc(Cl)ccc3c(Nc3cc(CN4CCCC4)c(O)c(CN4CCCC4)c3)c2n1,,"mouse, blood","intraperitoneal, 14 mg/kg",,red cell distribution width (SD),24.9 fL
CC(C)(O)c1cc(Nc2cc(Oc3cn(C4CC4)nc3C3CCOCC3)ccn2)ccn1,item: Anemia,Japanese patients with advanced cancer,"oral, dose not given, any grade",,treatment-emergent adverse events,33%
O=S(=O)([O-])C(F)(F)C(F)(F)C(F)(F)C(F)(F)C(F)(F)C(F)(F)C(F)(F)C(F)(F)F.[K+],,"male C57BL/6J mice, EtOH-fed, liver",dose not given,relative to: efavirenz and pair-fed,hepatic triglycerides,increased
COc1cc2c(Oc3ccc4[nH]c(C)cc4c3F)ccnc2cc1OCC1(N)CC1,item: grade 1 or 2 weight loss,paediatric high-risk refractory sarcoma,whole group,,incidence of adverse event,11.8%
CC(C)C[C@H](NC(=O)[C@H](CCCCN)NC(=O)OCC1c2ccccc2-c2ccccc21)C(=O)N[C@H](C(=O)N[C@@H](Cc1ccccc1)C(=O)N[C@@H](Cc1ccccc1)C(=O)N[C@@H](CCCCN)C(=O)NCC(=O)N[C@@H](Cc1ccccc1)C(=O)N[C@@H](C)C(=O)N[C@@H](Cc1c[nH]c2ccccc12)C(=O)N[C@@H](CC(N)=O)C(=O)N[C@H](C(=O)N[C@H]1CSSC[C@@H](C(=O)N[C@@H](Cc2c[nH]cn2)C(=O)N[C@@H](CCCNC(=N)N)C(=O)N[C@@H](CCCNC(=N)N)C(=O)N[C@@H](C)C(=O)N[C@@H](CC(N)=O)C(N)=O)NC(=O)[C@H](C(C)C)NC(=O)[C@H](CCCNC(=N)N)NC(=O)[C@H](C(C)C)NC(=O)CNC(=O)[C@H](CC(N)=O)NC(=O)[C@H](CCCNC(=N)N)NC(=O)[C@H](Cc2ccc(O)cc2)NC(=O)[C@H](C(C)C)NC1=O)C(C)C)C(C)C,,"ICR mice, blood","intraperitoneal, 10 mg/kg, day 5",,basophils,1.63 ± 0.19%
CC(C)[C@@H]1CC[C@@H](C)C[C@@H]1O,acute oral toxicity OECD,"Swiss albino mice, serum","oral, 1000 mg/kg",,alanine aminotransferase,51.9 ± 8.86 U/L
CC(=O)c1c(C)c2cnc(Nc3ccc(C4CCN(CCS(C)(=O)=O)CC4)cn3)nc2n(C2CCCC2)c1=O,,"human, plasma","oral, 50 mg twice daily, day 21, multiple doses, with: letrozole",,AUC(0-t),550 ng·h/mL
NC(=O)[C@H]1CCN(c2ncnc(N)c2F)C[C@@H]1N1CCC[C@@H](Nc2cc(Cl)cc(C(F)(F)F)c2)C1=O,,B-cell malignancy patients,"oral, 164 mg twice daily, dose",,grade ≥3 lymphopenia,0%
C1=Cc2nc1cc1ccc([n-]1)c(C1CC1)c1nc(cc3ccc([n-]3)c2C2CC2)C=C1.CC(=O)[O-].[Mn+3],LC-MS/MS,"Sprague-Dawley rat, plasma","oral gavage, dose not given, 240 min, individual rat Rat2",,plasma concentration,202 ng/mL
Cn1cc(-c2nc(N[C@@H]3CCCC[C@@H]3N)c(F)c3c2C(=O)NC3)cn1,epistaxis,patients with relapsed or refractory AML,"oral, 160 mg once daily",,adverse events,11%
C[C@]1(CO)Cc2ncn(-c3ccc(C#N)c(Cl)c3)c2C(=O)O1,,human,5 mg single dose,,subjects with drug-related orthostatic hypotension,0%
CN1CCN(S(=O)(=O)c2cc([N+](=O)[O-])ccc2N(CCOS(C)(=O)=O)CCOS(C)(=O)=O)CC1,,"NSG mice, plasma","intraperitoneal, 5 mg/kg, 1.5 h",,concentration,not detected
COc1ccc(-c2c(-c3ccc(C#N)c(F)c3)nc(N3CCC(N)CC3)n(C)c2=O)cc1F,item: Vomiting,neuroendocrine neoplasm patients,"oral, 60 mg, grade 3 to 4, dose expansion",,treatment-related adverse event incidence,0%
Cc1ccccc1C(=O)NN=Cc1ccc(O)c(Br)c1,,"C3H/HeN mouse IN model, plasma","intravenous, 1.6 mg/kg",,C0,610 ng/mL
COc1cccc(Oc2ccccc2NC(=O)CNC(=O)c2cccc3ccccc23)c1,,"esterase-deficient SCID mice, male, blood","oral, 100 mg/kg/day, 14 days, toxicity study",relative to: white cells,basophils,1.1% and 2.2% and 0%
COc1ncccc1-c1cnn2ccc(N3CCN(C(=O)OC(C)C)CC3)nc12,,"rat, thermal hyperalgesia model, plasma","oral, 3 mg/kg, 180 min",,free drug concentration,7.6 nM
[O-][S+]1CCc2nc(N3CCC(c4ncc(Cl)cn4)CC3)nc(NC3(CO)CCC3)c21 (stereo not drawn),item: Diarrhoea,healthy male humans,12 mg twice daily,,adverse event incidence,0%
COc1cccc2c1CCCC2CCCN1CCN(C2CCCCC2)CC1 (stereo not drawn),,"CD-1 mouse, male, plasma","intraperitoneal, 1 mg/kg",,AUC(0-inf),78.2 ng·h/mL
CC(C)n1c(C2CCNCC2)nc2c([N+](=O)[O-])c(Br)c(Br)cc21,,patients with AML,"125 mg, fungal pneumonia",,AE leading to discontinuation,6%
CC(C)CC(=O)OC[C@H]1O[C@@](C#N)(c2ccc3c(N)ncnn23)[C@H](O)[C@@H]1O,plasma protein binding,dog plasma,"9 µM, time not given",,recovery,94%
Cn1nccc1[C@]1(CNC(=O)c2ccc(F)c(F)c2-c2ccc(C(F)(F)F)cc2)NC(=O)NC1=O,item: CYP1A2 mRNA,sandwich-cultured human hepatocytes,48 h,no induction up to value,CYP1A2 induction,> 61 µM
